# Experimental data of several laboratories.
# Protocols differ between the studies behind these lines. ± gives the spread as reported.
# rep main protease: Replicase polyprotein 1ab, main protease (rep, Severe acute respiratory syndrome coronavirus 2, UniProt P0DTD1)
SMILES,tested on,test,system,setting,measurement,result
C=CCc1cc(-c2cc(CC=C)c3oc(=O)n(Cc4nnc(-c5ccc(OC)cc5)o4)c3c2)c2oc(=O)n(Cc3nnc(-c4ccc(OC)cc4)o3)c2c1,Severe acute respiratory syndrome coronavirus 2,"viral entry, inhibitor",,pseudovirus,IC50,11.9 µM
CC(=O)c1cc([N+](=O)[O-])c(Sc2cccc(Cl)c2Cl)s1,rep main protease,"viral replication, Gluc reporter",SARS-CoV-2,20 µM,inhibition,-6.74%
CCC(CC)COC(=O)[C@H](C)N[P@](=O)(OC[C@H]1O[C@@](C#N)(c2ccc3c(N)ncnn23)[C@H](O)[C@@H]1O)Oc1ccccc1,Severe acute respiratory syndrome coronavirus 2,viral replication,Vero,,IC50,0.085 µM
CCC(CC)COC(=O)[C@H](C)N[P@](=O)(OC[C@H]1O[C@@](C#N)(c2ccc3c(N)ncnn23)[C@H](O)[C@@H]1O)Oc1ccccc1,Severe acute respiratory syndrome coronavirus 2,cytopathic effect,Vero C1008,72 h,IC50,0.51 µM
CC#CCn1c(N2CCC[C@@H](N)C2)nc2c1c(=O)n(Cc1nc(C)c3ccccc3n1)c(=O)n2C,Severe acute respiratory syndrome coronavirus 2,viral replication,Vero C1008,48 h,IC50,2.21 µM
Cc1cnc(C(=O)N[C@H]2CCCCC/C=C\[C@@H]3C[C@@]3(C(=O)NS(=O)(=O)C3CC3)NC(=O)[C@@H]3C[C@@H](Oc4nc5ccccc5c5ccccc45)CN3C2=O)cn1,Severe acute respiratory syndrome coronavirus 2,"viral replication, inhibitor",HEK-293T,,IC50,0.55 µM
CCc1ccccc1NC(=O)CSC(=O)NNC(=O)[C@H](Cc1c[nH]c2ccccc12)NC(=O)OC(C)(C)C,rep main protease,"viral replication, Gluc reporter",SARS-CoV-2,20 µM,inhibition,1.29%
C[C@]12C=CC(=O)C=C1CC[C@@H]1[C@@H]2[C@@H](O)C[C@@]2(C)[C@H]1C[C@H]1O[C@@H](C3CCCCC3)O[C@]12C(=O)CO,Severe acute respiratory syndrome coronavirus 2,"viral replication, inhibitor",Calu-3,,IC50,13.4 µM
CC(C)C(=O)OC[C@@]1(F)O[C@@H](n2cnc(-c3cnc(N)nc3)c2)[C@H](OC(=O)C(C)C)[C@@H]1OC(=O)C(C)C,Severe acute respiratory syndrome coronavirus 2,"viral replication, inhibitor",A549-ACE2,24 h,IC50,> 100 µM
CC(C)(C)NC(=O)N[C@H](C(=O)N1C[C@H]2[C@@H]([C@H]1C(=O)NC(CC1CCC1)C(=O)C(N)=O)C2(C)C)C(C)(C)C (stereo partly drawn),Severe acute respiratory syndrome coronavirus 2,"viral replication, inhibitor",HEK-293T,,IC50,5.4 µM
Nc1ncnc2c([C@@H]3N[C@H](CO)[C@@H](O)[C@H]3O)c[nH]c12,Chikungunya virus,viral replication,"HeLa, AF 15561",50 µM,inhibition,4.7%
N#C[C@@H]1C[C@@H]2C[C@@H]2N1C(=O)[C@@H](N)C12CC3CC(CC(O)(C3)C1)C2,Severe acute respiratory syndrome coronavirus 2,viral replication,Vero C1008,48 h,IC50,6.68 µM
Cn1cnc(Cn2c(=O)[nH]/c(=N\c3cc4cn(C)nc4cc3Cl)n(Cc3cc(F)c(F)cc3F)c2=O)n1,,,"human, severe renal impairment, plasma","oral, 375 mg single dose",Tmax,2.75 h
CC(C)C(=O)Nc1ncncc1-c1cn([C@@H]2O[C@](F)(COC(=O)C(C)C)[C@@H](OC(=O)C(C)C)[C@H]2OC(=O)C(C)C)cn1,Severe acute respiratory syndrome coronavirus 2,"viral replication, inhibitor",A549-ACE2,24 h,IC50,25 µM
CCCC[C@H](NC(=O)[C@@H]1[C@@H]2[C@H](CN1C(=O)[C@@H](NC(=O)NC1(CS(=O)(=O)C(C)(C)C)CCCCC1)C(C)(C)C)C2(C)C)C(=O)C(=O)NC1CC1,Severe acute respiratory syndrome coronavirus 2,"viral replication, inhibitor",HEK-293T,,IC50,15 µM
COc1ncncc1-c1cn([C@@H]2O[C@](F)(CO)[C@@H](O)[C@H]2O)cn1,Severe acute respiratory syndrome coronavirus 2,"viral replication, inhibitor",A549-ACE2,24 h,IC50,> 100 µM
CC(C)C[C@H](NC(=O)[C@H](Cc1ccccc1)NC(=O)c1cnccn1)B(O)O,Severe acute respiratory syndrome coronavirus 2,cytopathic effect,Vero C1008,72 h,IC50,~0.496 µM
O=C(O)C1=CC(=C(c2ccc(O)c(C(=O)O)c2)c2ccc(O)c(C(=O)O)c2)C=CC1=O,Severe acute respiratory syndrome coronavirus 2,"viral replication, inhibitor",Vero C1008,24 h,IC50,50 µM
CC(C)C(=O)OCC(=O)[C@@]12O[C@H](C3CCCCC3)O[C@@H]1C[C@H]1[C@@H]3CCC4=CC(=O)C=C[C@]4(C)[C@H]3[C@@H](O)C[C@@]12C,Severe acute respiratory syndrome coronavirus 2,"viral replication, inhibitor",Calu-3,,IC50,4.5 µM
COc1ncc(-c2cn([C@@H]3O[C@](F)(COC(=O)C(C)C)[C@@H](OC(=O)C(C)C)[C@H]3OC(=O)C(C)C)cn2)c(OC)n1,Severe acute respiratory syndrome coronavirus 2,"viral replication, inhibitor",A549-ACE2,24 h,IC50,18.7 µM
c1ccc(-c2ccc(-c3nc4ccccc4nc3-c3ccccc3)cc2)cc1,Severe acute respiratory syndrome coronavirus 2,"viral entry, inhibitor",,pseudovirus,IC50,142 µM
Cc1cccc(NC(=O)C[S+]([O-])c2nc(-c3ccccc3)cn2-c2ccc(Cl)cc2)c1C (racemic),Severe acute respiratory syndrome coronavirus 2,viral entry,,,IC50,14.7 µM
CC(C)C(=O)OC[C@@]1(F)O[C@@H](n2cnc(-c3cnc(=O)[nH]c3)c2)[C@H](OC(=O)C(C)C)[C@@H]1OC(=O)C(C)C,Severe acute respiratory syndrome coronavirus 2,"viral replication, inhibitor",A549-ACE2,24 h,IC50,> 100 µM
CC[C@H](C)[C@H](NC(=O)[C@H](CC(C)C)NC(=O)[C@H](Cc1c[nH]c2ccccc12)NC(=O)[C@H](CCC(N)=O)NC(=O)[C@@H](NC(=O)[C@H](Cc1ccccc1)NC(=O)[C@H](C)NC(=O)[C@H](CCCCNC(=O)COCCOCCNC(=O)COCCOCCNC(=O)CC[C@H](NC(=O)CCCCCCCCCCCCCCCCCCC(=O)O)C(=O)O)NC(=O)[C@H](CCC(N)=O)NC(=O)[C@H](C)NC(=O)[C@@H](NC(=O)[C@H](CCCCN)NC(=O)[C@H](CC(=O)O)NC(=O)[C@H](CC(C)C)NC(=O)C(C)(C)NC(=O)[C@@H](NC(=O)[C@H](CO)NC(=O)[C@H](Cc1ccc(O)cc1)NC(=O)[C@H](CC(=O)O)NC(=O)[C@H](CO)NC(=O)[C@@H](NC(=O)[C@H](Cc1ccccc1)NC(=O)[C@@H](NC(=O)CNC(=O)[C@H](CCC(=O)O)NC(=O)C(C)(C)NC(=O)[C@@H](N)Cc1ccc(O)cc1)[C@@H](C)O)[C@@H](C)O)[C@@H](C)CC)[C@@H](C)CC)C(C)C)C(=O)N[C@@H](C)C(=O)NCC(=O)NCC(=O)N1CCC[C@H]1C(=O)N[C@@H](CO)C(=O)N[C@@H](CO)C(=O)NCC(=O)N[C@@H](C)C(=O)N1CCC[C@H]1C(=O)N1CCC[C@H]1C(=O)N1CCC[C@H]1C(=O)N[C@@H](CO)C(N)=O,,,"healthy subjects, single ascending dose","0.25 mg, baseline",serum AST,24.2 ± 6.1 U/L

# Excerpt of the above:
SMILES,tested on,test,system,setting,measurement,result
CC(C)(C)NC(=O)N[C@H](C(=O)N1C[C@H]2[C@@H]([C@H]1C(=O)NC(CC1CCC1)C(=O)C(N)=O)C2(C)C)C(C)(C)C (stereo partly drawn),Severe acute respiratory syndrome coronavirus 2,"viral replication, inhibitor",HEK-293T,,IC50,5.4 µM
Nc1ncnc2c([C@@H]3N[C@H](CO)[C@@H](O)[C@H]3O)c[nH]c12,Chikungunya virus,viral replication,"HeLa, AF 15561",50 µM,inhibition,4.7%
